Experimental data collected from several papers.
Parts stem from different laboratories: compare values within a part only. Values joined by “and” are separate records of one study, mostly repeats; a detail may differ.
UniProt Q8WXD0, sequence (whole entry, looked up): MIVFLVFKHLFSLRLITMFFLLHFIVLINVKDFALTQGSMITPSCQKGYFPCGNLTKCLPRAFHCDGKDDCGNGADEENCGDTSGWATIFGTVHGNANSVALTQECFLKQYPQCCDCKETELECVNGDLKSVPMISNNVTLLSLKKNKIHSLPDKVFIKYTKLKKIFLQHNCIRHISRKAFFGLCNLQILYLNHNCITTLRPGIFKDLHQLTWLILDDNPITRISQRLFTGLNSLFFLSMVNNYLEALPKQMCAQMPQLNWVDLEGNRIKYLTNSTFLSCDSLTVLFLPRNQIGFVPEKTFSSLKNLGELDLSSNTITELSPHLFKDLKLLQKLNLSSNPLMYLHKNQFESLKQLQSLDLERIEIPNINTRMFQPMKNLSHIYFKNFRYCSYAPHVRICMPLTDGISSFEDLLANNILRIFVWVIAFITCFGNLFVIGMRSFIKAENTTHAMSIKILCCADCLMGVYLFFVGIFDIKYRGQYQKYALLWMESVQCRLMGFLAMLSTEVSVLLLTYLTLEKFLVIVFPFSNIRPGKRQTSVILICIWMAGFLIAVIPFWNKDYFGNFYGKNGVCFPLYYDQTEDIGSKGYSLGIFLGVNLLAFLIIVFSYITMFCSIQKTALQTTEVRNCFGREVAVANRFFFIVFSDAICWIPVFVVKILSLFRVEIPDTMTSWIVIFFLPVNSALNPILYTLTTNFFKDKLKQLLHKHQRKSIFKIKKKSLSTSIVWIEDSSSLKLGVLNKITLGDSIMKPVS
UniProt P25103, sequence (whole entry, looked up): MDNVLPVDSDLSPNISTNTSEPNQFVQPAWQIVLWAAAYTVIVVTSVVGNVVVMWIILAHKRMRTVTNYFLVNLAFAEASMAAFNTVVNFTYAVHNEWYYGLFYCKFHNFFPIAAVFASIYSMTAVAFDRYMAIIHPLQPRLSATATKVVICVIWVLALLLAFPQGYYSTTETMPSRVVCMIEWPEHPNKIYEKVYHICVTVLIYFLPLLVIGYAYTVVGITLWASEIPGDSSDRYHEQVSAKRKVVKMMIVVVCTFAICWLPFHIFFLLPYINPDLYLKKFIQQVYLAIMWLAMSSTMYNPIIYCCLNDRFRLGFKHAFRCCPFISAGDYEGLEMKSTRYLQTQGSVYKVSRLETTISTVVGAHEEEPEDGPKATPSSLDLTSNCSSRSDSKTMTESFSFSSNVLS
UniProt P48546, sequence (whole entry, looked up): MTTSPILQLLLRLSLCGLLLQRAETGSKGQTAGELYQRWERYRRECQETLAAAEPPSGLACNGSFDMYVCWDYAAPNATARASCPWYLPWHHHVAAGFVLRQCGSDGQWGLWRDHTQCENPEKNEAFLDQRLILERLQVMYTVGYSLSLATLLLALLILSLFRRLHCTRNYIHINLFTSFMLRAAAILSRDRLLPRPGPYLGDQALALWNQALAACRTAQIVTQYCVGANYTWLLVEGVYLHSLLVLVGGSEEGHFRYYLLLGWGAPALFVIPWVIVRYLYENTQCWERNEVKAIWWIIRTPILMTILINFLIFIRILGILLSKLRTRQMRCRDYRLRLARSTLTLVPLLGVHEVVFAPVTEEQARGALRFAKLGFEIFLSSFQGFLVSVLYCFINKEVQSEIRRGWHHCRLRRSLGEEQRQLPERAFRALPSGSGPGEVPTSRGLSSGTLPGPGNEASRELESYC
UniProt P50391, sequence (whole entry, looked up): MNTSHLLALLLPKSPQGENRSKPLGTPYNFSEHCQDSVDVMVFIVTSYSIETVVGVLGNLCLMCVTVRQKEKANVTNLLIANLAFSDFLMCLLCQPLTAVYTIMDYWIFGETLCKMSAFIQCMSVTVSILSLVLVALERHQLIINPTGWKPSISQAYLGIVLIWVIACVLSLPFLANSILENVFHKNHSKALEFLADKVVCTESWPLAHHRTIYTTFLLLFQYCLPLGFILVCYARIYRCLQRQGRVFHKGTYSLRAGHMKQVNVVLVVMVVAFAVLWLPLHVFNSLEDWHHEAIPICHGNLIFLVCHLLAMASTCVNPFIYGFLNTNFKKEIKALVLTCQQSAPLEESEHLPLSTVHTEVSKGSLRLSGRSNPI
UniProt P25089, sequence (whole entry, looked up): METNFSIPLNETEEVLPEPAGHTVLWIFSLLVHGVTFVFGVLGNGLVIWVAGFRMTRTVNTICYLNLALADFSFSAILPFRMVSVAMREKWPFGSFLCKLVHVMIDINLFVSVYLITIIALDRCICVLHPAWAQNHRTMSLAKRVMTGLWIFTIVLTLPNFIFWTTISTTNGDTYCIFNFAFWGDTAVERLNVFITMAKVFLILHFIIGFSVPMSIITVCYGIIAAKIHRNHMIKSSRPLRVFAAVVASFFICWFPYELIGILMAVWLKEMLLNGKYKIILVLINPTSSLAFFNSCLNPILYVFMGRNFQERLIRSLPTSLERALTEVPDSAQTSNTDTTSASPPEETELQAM
UniProt P23945, sequence (whole entry, looked up): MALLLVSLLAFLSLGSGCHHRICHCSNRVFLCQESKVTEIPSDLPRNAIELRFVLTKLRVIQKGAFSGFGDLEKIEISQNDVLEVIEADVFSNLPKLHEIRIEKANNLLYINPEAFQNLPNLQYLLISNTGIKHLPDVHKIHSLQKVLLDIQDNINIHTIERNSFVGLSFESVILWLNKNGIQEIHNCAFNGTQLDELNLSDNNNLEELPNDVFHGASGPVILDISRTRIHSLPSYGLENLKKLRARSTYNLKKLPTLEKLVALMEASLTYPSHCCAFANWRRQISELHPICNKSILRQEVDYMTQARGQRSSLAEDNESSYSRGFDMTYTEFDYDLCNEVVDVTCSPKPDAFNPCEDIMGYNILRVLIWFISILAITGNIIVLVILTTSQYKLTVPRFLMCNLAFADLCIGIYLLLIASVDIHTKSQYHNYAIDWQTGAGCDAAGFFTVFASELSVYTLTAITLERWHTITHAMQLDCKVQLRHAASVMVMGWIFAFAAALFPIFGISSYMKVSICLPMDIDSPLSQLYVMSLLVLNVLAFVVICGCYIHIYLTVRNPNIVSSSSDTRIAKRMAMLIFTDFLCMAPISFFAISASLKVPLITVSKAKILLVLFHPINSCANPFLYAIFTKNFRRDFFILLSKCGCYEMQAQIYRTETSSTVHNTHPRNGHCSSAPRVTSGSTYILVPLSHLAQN
UniProt P21728, sequence (whole entry, looked up): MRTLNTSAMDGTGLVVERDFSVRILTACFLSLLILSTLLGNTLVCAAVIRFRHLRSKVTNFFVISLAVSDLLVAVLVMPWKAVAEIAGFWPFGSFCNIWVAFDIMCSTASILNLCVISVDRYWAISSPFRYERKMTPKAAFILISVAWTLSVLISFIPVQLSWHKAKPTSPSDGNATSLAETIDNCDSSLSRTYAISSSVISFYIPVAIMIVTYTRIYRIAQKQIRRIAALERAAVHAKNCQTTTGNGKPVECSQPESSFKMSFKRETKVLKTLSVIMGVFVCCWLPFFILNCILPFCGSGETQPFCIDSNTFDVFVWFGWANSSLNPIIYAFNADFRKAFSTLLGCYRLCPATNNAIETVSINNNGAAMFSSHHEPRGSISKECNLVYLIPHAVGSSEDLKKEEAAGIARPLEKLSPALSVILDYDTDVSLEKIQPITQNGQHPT
UniProt P32239, sequence (whole entry, looked up): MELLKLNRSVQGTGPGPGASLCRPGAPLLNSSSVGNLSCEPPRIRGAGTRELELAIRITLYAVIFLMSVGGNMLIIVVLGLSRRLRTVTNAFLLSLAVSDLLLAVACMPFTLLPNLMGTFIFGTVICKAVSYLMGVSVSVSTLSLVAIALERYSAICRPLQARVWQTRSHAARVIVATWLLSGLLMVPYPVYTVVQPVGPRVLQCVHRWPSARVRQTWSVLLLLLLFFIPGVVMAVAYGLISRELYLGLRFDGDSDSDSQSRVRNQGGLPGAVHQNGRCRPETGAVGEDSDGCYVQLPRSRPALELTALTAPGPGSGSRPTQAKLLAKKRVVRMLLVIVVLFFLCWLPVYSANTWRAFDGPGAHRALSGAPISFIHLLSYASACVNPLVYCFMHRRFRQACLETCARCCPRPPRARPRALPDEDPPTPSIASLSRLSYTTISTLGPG

Block 1 — SMILES: CCN(c1nc(N)c(C(=O)N=C(N)N)nc1Cl)C(C)C; effect on: β-arrestin recruitment; mode: agonist; technique: PRESTO-Tango; tested at: 10 µM; baseline: untreated; measurement: fold over basal
target = D(1A) dopamine receptor (DRD1, Homo sapiens, UniProt P21728); value = 0.95
target = Relaxin receptor 2 (RXFP2, Homo sapiens, UniProt Q8WXD0); value = 0.8
target = Follicle-stimulating hormone receptor (FSHR, Homo sapiens, UniProt P23945); value = 0.64 fold
target = Substance-P receptor (TACR1, Homo sapiens, UniProt P25103); value = 1.3 fold
target = Glucose-dependent insulinotropic receptor (GPR119, Homo sapiens, UniProt Q8TDV5); value = 0.78
target = Gastric inhibitory polypeptide receptor (GIPR, Homo sapiens, UniProt P48546); value = 0.59 fold
target = G-protein coupled receptor family C group 5 member B (GPRC5B, Homo sapiens, UniProt Q9NZH0); value = 0.65
target = N-formyl peptide receptor 3 (Homo sapiens, UniProt P25089); value = 0.59 fold
target = Gastrin/cholecystokinin type B receptor (CCKBR, Homo sapiens, UniProt P32239); value = 1.18
target = Cholecystokinin receptor type A (CCKAR, Homo sapiens, UniProt P32238); value = 0.94
target = Neuropeptide Y receptor type 4 (NPY4R, Homo sapiens, UniProt P50391); value = 0.83

Block 2 — technique: PRP chromatography; notes: linear fit, 1 mL; measurement: logD 1,9-decadiene/water
SMILES = CC(C)C[C@@H]1NC(=O)[C@H](C)NC(=O)[C@H](Cc2cscn2)NC(=O)[C@@H](CC(C)C)NC(=O)[C@H](C(C)C)NC(=O)[C@H](CC(C)C)NC(=O)[C@@H](CC(C)C)NC1=O; value = -1.67 log units
SMILES = CC(C)C[C@@H]1NC(=O)[C@H](CC(C)C)NC(=O)[C@H](CC(C)C)NC(=O)[C@H](C(C)C)NC(=O)[C@H](C)NC(=O)[C@@H](CC(C)C)NC(=O)[C@H](C)NC1=O; value = -0.77 log units
SMILES = CC(C)C[C@@H]1NC(=O)[C@H](C)NC(=O)[C@@H](CC(C)C)NC(=O)[C@H](C)NC(=O)[C@H](C)NC(=O)[C@H](CC(C)C)NC(=O)[C@@H](CC(C)C)NC1=O; value = -1.67 log units
SMILES = CC(C)C[C@@H]1NC(=O)[C@H](CC(C)C)NC(=O)[C@@H](CC(C)C)NC(=O)[C@H](C(C)C)NC(=O)[C@@H](CCC(=O)N2CCCC2)NC(=O)[C@H](Cc2cscn2)NC(=O)[C@H](C)NC1=O; value = -2.32 log units
SMILES = CC(C)C[C@@H]1NC(=O)[C@H](Cc2cscn2)NC(=O)[C@H](CCC(=O)N2CCCC2)NC(=O)[C@@H](CCC(=O)N2CCCC2)NC(=O)[C@H](CC(C)C)NC(=O)[C@@H](CC(C)C)NC(=O)[C@H](CC(C)C)NC1=O; value = -1.2 log units
SMILES = CC(C)C[C@@H]1NC(=O)[C@H](C)NC(=O)[C@H](CCC(=O)N2CCCC2)NC(=O)[C@H](CCC(=O)N2CCCC2)NC(=O)[C@@H](CCC(=O)N2CCCC2)NC(=O)[C@H](CC(C)C)NC(=O)[C@@H](CC(C)C)NC1=O; value = -4.9 log units
SMILES = CC(C)C[C@@H]1NC(=O)[C@H](CC(C)C)NC(=O)[C@H](CC(C)C)NC(=O)[C@H](Cc2cscn2)NC(=O)[C@@H](Cc2cscn2)NC(=O)[C@@H](CC(C)C)NC(=O)[C@H](C)NC1=O; value = 0.196 log units

Block 3 — cell line: normal organoid sample D; technique: CellTiter-Glo; species: human; sample: normal-adjacent epithelium; tested at: 1 µM; baseline: DMSO; measurement: viability
SMILES = COc1cc(-c2cn(C3CCc4c(F)cccc4N(CC(F)(F)F)C3=O)nn2)ccc1-n1cnc(C)c1 (centres unmarked); value = 138% and 99.8%
SMILES = CC(=O)N1CCC(c2ccc(C(=O)NC3=NCCN3)cc2C(F)(F)F)CC1; value = 94.3% and 116%
SMILES = COc1cc(-c2cn(C3CCc4ccccc4N(CC(F)(F)F)C3=O)nn2)ccc1-n1ccc(C)n1 (centres unmarked); value = 76.8% and 79%
SMILES = Cc1cn(-c2cc(NC(=O)c3ccc4c(c3)CN(c3cncnc3)C[C@@H]4C)cc(C(F)(F)F)c2)cn1; value = 99% and 97.2%
SMILES = Cn1cncc1[C@](O)(COc1ccc(C#N)cc1-c1ccc(OC(F)(F)F)cc1)c1ccc(C#N)cc1; value = 56% and 49.6%
SMILES = CO[C@H]1CC[C@H](CNc2ccc(S(=O)(=O)NC(=O)c3ccc(N4CCN(CC5=C(c6ccc(Cl)cc6)CC(C)(C)CC5)CC4)cc3Oc3cnc4[nH]ccc4c3)cc2[N+](=O)[O-])CC1; value = 102% and 149%
SMILES = CCC(=O)N[C@H]1CC[C@@H](C(=O)N(C)c2ccc(-c3nc4ccccc4o3)cc2)C1; value = 52.8% and 65%

Block 4 — effect on: enzyme activity; mode: inhibitor; tested at: 0.5 µM; baseline: control; measurement: remaining activity
Target: Protein-tyrosine kinase 2-beta (PTK2B, Homo sapiens, UniProt Q14289)
UniProt Q14289, sequence (whole entry, looked up): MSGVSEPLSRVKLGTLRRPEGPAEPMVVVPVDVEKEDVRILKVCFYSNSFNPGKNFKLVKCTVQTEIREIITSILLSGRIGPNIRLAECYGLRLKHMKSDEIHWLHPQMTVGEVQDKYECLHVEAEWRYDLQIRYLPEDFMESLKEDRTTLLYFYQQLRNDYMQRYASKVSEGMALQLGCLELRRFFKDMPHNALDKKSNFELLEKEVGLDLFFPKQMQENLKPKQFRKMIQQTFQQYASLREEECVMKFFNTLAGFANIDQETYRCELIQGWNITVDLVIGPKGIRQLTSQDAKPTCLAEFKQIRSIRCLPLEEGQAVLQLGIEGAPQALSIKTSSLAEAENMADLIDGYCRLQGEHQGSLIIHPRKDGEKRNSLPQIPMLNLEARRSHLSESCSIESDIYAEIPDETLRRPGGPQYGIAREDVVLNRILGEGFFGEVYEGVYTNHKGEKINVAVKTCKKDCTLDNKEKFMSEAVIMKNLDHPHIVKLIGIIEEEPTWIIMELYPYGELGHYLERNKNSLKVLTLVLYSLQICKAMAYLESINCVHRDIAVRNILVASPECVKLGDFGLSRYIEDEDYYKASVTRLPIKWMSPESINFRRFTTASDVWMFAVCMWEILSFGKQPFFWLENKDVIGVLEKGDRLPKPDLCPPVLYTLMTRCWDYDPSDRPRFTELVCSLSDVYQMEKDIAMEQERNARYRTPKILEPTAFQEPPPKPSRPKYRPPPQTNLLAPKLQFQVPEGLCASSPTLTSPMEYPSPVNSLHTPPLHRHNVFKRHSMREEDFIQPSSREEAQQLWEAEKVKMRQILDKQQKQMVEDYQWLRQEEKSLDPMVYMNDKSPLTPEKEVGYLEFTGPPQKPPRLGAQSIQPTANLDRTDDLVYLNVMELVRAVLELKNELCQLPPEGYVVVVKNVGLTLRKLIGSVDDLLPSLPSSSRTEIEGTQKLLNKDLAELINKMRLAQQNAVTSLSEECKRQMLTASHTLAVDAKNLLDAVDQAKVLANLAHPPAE
Compound = N#CC(c1ccnc(NCCc2cccnc2)n1)c1nc2ccccc2s1 (centres unmarked); value = 98.7%
Compound = CC(C)(C)c1nc2c3cc[nH]c(=O)c3c3cc(F)ccc3c2[nH]1; value = 48.4%
Compound = Nc1nc(Nc2ccc(S(N)(=O)=O)cc2)nn1C(=S)Nc1c(F)cccc1F; value = 33.6%
Compound = O=C1Nc2ccc(Br)cc2/C1=C/c1cc2c([nH]1)CCCC2; value = 82.4%
Compound = NC(=O)c1ccc(-c2nc(-c3ccc4c(c3)OCCO4)c(-c3ccccn3)[nH]2)cc1; value = 101%
Compound = N#C/C(=C(/N)SC1C=CC=CC1)c1cccc(C(O)c2ccncc2)c1 (centres unmarked); value = 96.2%
Compound = CCN(CC)CCCCN1c2ccccc2Oc2ccc(Cl)cc21; value = 99.6%
Compound = O=C1NC(=O)c2c1c1c3ccccc3[nH]c1n1cncc21; value = 70.1%
Compound = COc1ccc2c(c1)c(C1=C(c3c[nH]c4ccccc34)C(=O)NC1=O)cn2CCCN(C)C; value = 104%
Compound = O=C(c1ccccc1)c1ccc(N2CCOCC2)cc1O; value = 102%
Compound = COc1cccc(-c2cc(=O)c3ccccc3o2)c1N; value = 91.2%
Compound = O=C1Nc2ccccc2/C1=C\c1c(Cl)[nH]c2ccccc12; value = 95.5%
Compound = CNc1cc2c(Nc3cccc(Br)c3)ncnc2cn1; value = 94.5%
Compound = CN(C)S(=O)(=O)c1ccc2c(c1)/C(=C/c1cc3c([nH]1)CCCC3)C(=O)N2; value = 52.6%
Compound = CN1CCN(c2ccc3nc(-c4c(N)c5c(F)cccc5[nH]c4=O)[nH]c3c2)CC1; value = 84.3%
Compound = O=c1cc(N2CCOCC2)oc2c(-c3ccccc3)cccc12; value = 107%
Compound = c1cc(-c2cnn3cc(-c4ccc(OCCN5CCCCC5)cc4)cnc23)ccn1; value = 106%
Compound = c1ccc(-c2n[nH]c3c2oc2ccccc23)cc1; value = 96.8%
Compound = CCCNC(=O)Nc1ccc(Oc2ncnc3cc(OC)c(OC)cc23)cc1Cl; value = 88%
Compound = FC(F)(F)c1ccc(/C=C/c2nc(COc3ccc(CCCCn4ccnn4)cc3)co2)cc1; value = 103%
Compound = CC(C)n1cnc2c(Nc3cccc(Cl)c3)nc(NCCO)nc21; value = 85%
Compound = COc1ccc(COc2ccc(Cc3cnc(N)nc3N)cc2OC)cc1; value = 86.1%
Compound = Clc1ccc(Nc2nnc(Cc3ccncc3)c3ccccc23)cc1; value = 102%
Compound = O=C1NC(=O)/C(=C/c2ccc3c(c2)OC(F)(F)O3)S1; value = 110%
Compound = c1ccc2c(-c3ccncc3)c[nH]c2c1; value = 95.3%

Excerpt of the above (block 1):
target = Follicle-stimulating hormone receptor (FSHR, Homo sapiens, UniProt P23945); value = 0.64 fold
target = Substance-P receptor (TACR1, Homo sapiens, UniProt P25103); value = 1.3 fold
target = Glucose-dependent insulinotropic receptor (GPR119, Homo sapiens, UniProt Q8TDV5); value = 0.78
target = Gastric inhibitory polypeptide receptor (GIPR, Homo sapiens, UniProt P48546); value = 0.59 fold
target = G-protein coupled receptor family C group 5 member B (GPRC5B, Homo sapiens, UniProt Q9NZH0); value = 0.65
target = N-formyl peptide receptor 3 (Homo sapiens, UniProt P25089); value = 0.59 fold
target = Gastrin/cholecystokinin type B receptor (CCKBR, Homo sapiens, UniProt P32239); value = 1.18
